# Results gathered from unrelated publications.
# Every numbered part comes from another study and shows a few of its results, in no order.

# Study 1
# Target: Histone acetyltransferase KAT6A, winged helix 1, GST fusion (KAT6A, Homo sapiens, UniProt Q92794, residues 1-85)
# Method: protein binding microarray
# Molecule type: double-stranded DNA, one strand shown
# Sample: in vitro
# Concentration: not given
# Setting: 8-mer, flanks averaged, mean of 2 arrays, mostly near background
# Reference: not given
# Reading: higher = stronger binding
# Construct (chain): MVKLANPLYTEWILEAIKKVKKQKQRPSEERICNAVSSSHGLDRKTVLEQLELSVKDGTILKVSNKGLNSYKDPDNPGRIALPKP
Strand,E-score
ATACTCCG,0.108
CACATCTC,-0.192
TGGCTCAA,-0.126
ACGATTAT,-0.0387
AAGCGGCT,0.301
CGACTCCG,0.253
ACTGTGGG,-0.0681
ATCCGATC,0.137
ATTTTGCG,-0.0344
CTTTAACC,-0.0612
AGTTGGGC,-0.239
GCAAGTGC,-0.0203
ATTGGCTG,-0.155
GCCGTGCA,0.298
ATAGCCTG,-0.268
CTGGGTGC,-0.106
CCGGACTA,0.202
GGACTGCA,-0.235
AACATCAT,-0.149
GATTGAAA,-0.145

# Study 2
# Target: Sal-like protein 4, full length isoform A (SALL4, Homo sapiens, UniProt Q9UJQ4, residues 1-1053)
# Chain of UniProt Q9UJQ4 (whole entry, looked up): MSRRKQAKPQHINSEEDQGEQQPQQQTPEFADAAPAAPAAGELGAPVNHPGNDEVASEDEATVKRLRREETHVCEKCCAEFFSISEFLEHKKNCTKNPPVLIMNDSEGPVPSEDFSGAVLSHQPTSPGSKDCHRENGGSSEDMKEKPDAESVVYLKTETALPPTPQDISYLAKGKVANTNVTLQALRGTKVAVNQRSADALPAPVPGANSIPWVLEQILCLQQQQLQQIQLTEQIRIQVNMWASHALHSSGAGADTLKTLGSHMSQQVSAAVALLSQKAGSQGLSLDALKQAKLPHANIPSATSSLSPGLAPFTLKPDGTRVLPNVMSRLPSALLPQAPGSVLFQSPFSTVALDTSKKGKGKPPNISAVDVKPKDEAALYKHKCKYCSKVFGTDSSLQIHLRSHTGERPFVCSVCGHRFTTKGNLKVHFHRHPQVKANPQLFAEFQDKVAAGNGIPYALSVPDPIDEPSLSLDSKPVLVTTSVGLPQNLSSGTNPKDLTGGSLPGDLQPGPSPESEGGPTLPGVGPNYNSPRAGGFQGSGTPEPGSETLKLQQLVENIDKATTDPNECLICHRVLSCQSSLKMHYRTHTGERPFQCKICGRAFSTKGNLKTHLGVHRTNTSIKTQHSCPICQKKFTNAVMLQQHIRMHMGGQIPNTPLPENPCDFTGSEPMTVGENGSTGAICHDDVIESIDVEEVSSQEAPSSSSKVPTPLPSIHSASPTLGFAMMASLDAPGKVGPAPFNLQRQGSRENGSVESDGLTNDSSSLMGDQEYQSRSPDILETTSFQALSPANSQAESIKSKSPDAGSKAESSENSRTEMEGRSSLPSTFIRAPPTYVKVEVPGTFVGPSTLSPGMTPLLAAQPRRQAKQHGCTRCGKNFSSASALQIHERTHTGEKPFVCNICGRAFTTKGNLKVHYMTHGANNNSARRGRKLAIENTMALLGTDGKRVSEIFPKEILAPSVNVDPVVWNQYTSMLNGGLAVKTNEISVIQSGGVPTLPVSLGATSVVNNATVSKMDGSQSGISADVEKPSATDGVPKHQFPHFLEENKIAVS
# Method: universal PBM
# Molecule type: double-stranded DNA, one strand shown
# Sample: in vitro
# Concentration: 600 nM
# Setting: 8-mer, flanks averaged, mean of replicates
# Reading: higher = stronger binding
Strand,E-score
ATGCCACA,0.0782
CACACCTC,-0.201
AAAAAGTT,0.235
CGTAACGA,-0.0661
GATTTGAC,0.0667
ATAACCAT,0.267
ACCGCTAG,-0.243
AAGAAGCC,-0.0157
ATGATTTG,0.116
CACCACCC,-0.295
TGGTACAA,0.183
CGGCCGAC,-0.226
ACGGACCG,-0.332
GAATCTAA,0.0389
GCACTTCC,-0.194
AGAAAGAG,-0.0858
GAGTTGGA,-0.0329
CGGCACAC,-0.211
AAAGATAA,0.354
GCTTCGCC,-0.308
ATCCTGGG,-0.229
GACCTGGC,-0.33
ATGACCGA,0.117

# Study 3
# Target: RING finger protein unkempt homolog, zinc fingers 1-6, GST-SBP tag (UNK, Homo sapiens, UniProt Q9C0B0, residues 30-357)
# Method: RNA Bind-n-Seq
# Molecule type: RNA
# Sample: in vitro
# Concentration: not given
# Setting: RNA with constant flanks, human and mouse sites, ends assumed
# Reference: input RNA pool
# Reading: higher = stronger binding
# Target sequence (chain): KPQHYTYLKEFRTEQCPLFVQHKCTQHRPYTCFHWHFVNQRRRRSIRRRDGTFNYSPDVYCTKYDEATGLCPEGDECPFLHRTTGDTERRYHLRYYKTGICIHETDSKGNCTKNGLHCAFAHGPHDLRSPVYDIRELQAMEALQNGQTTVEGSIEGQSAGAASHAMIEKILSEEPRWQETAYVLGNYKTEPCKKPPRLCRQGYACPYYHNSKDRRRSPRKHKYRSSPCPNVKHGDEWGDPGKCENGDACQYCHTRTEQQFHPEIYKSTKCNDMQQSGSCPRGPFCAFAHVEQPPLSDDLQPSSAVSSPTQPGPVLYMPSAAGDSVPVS
Strand,bound/input enrichment
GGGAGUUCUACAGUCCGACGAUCGAUUCUGAUGACAGUGCUUCAGGGAUUGAAGAUACAGCAGAUGAUUUGAGUAAAAUGAAGAGUGAGGAAUCUAACAAAGAAAAUUCUUCUGAGAUGGACUAUUUAGAAAAUGCCACUGUACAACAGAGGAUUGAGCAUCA,0.324 ratio
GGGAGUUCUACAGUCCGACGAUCUUCAGGCUCAUUUGUACUCUCUUCCCCUCUCAUCGUCAUGGUCAGGCUCUGAUACCUGCUUUUAAAAUGGAGCUAGAAUGCUUGCUGGAUUGAAAGGGAGUGCCUAUCUAUAUUUAGCAACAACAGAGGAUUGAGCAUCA,0.617 ratio
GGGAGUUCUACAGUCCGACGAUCACGCCAAAGCCACUUCGAAGUAGUGCUGACCCUGCACUCAAUCAAGAAGUUGCAUUAAAAUUAGAACCAAAUCCAGAGUCACUGGAACUUUCUUUUACCAUGCCCCAGAUUCAGGAUCAGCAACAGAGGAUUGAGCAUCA,0.456 ratio
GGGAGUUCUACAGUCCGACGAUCUAGCAUUUCAUGAGUUAGAAACAGGAAGAACAUUAUAAUUAAUAUUACCUAAGUCUAAAGUACCCAUAUAUUCAAAUUGGAUAUACUAUUUUUUCCUCUUGUGUUUAGAGAUUACCUAGGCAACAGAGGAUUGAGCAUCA,2.07 ratio
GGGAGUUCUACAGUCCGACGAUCGGCUGUGUAGGGGAGGAAGGGGUGCAUGCAUGUCCCCCACCCUCCACAGUCUUCCUUGCCUUUAGAGUGACCCUGCAGAGUCACUCAGCCAAAUCUGUCUGCUGCUCCCUCUCCUCAGCCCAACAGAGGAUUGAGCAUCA,0.151 ratio
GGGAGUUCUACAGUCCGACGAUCAGGACCAAAGAUGCCUCAACUUGGAUCCAGGUCCCUCUUGAAGAUACAAUGUCUCCUCGAACUUCCUUCACUGUGCAGGACCUCAAGCCUUUUACAGAAUAUGUGUUUAGGAUCCGGUCCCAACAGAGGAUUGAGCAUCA,0.0788 ratio
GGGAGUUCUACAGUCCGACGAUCAGAUGUCAGCUUAGUGUAAUAGGAAUUGGCCAUCUGGAAGCUGAUCAUCUUCUGAAGUCAGCAGAUGAUCAUUUAAGACUGUUAAAUGCUAUUUGGCCUCAUUAGUUAUGAGUUGCAUGUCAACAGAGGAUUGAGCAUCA,0.829 ratio
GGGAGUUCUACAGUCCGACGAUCGAGCCCUAUGGCUUCCGCUCCUCAAUGCUAUUUGAUACAAUGCAACAUCAUCUGGCCUUGAAUAGAGAUUUGACUACAUCUAGUGUGGAGAAAGACAGCGGAGGGAAGACACCCGGAGACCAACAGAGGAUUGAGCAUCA,0.343 ratio
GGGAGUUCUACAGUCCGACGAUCGAUGGAGACGAAGGCCCCAACACCGGGGGGAUGGGAGCCUACUGCCCAGCACCUCAGGUUUCUAAGGACUUGUUAGUAAAAAUUAAGAACACUAUUCUUCAGAGAGCAGUAGACGGCAUGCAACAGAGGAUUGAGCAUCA,1.36 ratio
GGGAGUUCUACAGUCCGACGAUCGCUGAGGGAAUAAAUUUAAUCAAGGUCUUUGCAAAAACAGAAGCACAGAAGGGAGCCUAUAUAGAACUAACACUGCAGACUUAUCAAGAAGCACUCAGUCGCCAUUCUGCAGCUUCCUAACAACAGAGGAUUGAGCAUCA,0.427 ratio
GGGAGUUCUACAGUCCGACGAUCUGUGAAAGAAAGGUUUUGCAUUCUGUCUACACAUUCGGCAGGAAUGAGUCCAGUUCCCUGUUUAGAUUCUUUGAGUGUAAUUUAUUGUGAAUGGCAGUUCAAAAUUCAGUUGAUCGGUCUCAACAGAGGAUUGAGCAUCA,1.25 ratio

# Study 4
# Target: Ras GTPase-activating protein-binding protein 1, full length (G3BP1, Homo sapiens, UniProt Q13283)
# Chain of UniProt Q13283 (whole entry, looked up): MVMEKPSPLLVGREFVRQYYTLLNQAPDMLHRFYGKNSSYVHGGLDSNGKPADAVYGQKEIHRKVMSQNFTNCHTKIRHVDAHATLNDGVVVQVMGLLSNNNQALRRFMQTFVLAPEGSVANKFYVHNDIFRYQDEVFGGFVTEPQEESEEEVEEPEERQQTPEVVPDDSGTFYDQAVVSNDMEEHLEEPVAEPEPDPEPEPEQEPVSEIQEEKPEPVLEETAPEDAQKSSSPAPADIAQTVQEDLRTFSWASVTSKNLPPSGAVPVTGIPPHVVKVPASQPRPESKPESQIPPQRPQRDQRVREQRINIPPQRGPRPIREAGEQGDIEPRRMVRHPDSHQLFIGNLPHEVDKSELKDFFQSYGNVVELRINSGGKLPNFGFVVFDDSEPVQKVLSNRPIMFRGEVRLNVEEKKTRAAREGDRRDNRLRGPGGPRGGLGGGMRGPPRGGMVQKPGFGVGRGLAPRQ
# Method: RNA Bind-n-Seq
# Molecule type: RNA
# Sample: in vitro
# Concentration: 200 nM
# Setting: whole 134-nt RNA, ends assumed
# Added: 150 mM KCl
# Reference: input library
# Reading: higher = stronger binding
Strand,log2 enrichment
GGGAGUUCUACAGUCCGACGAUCAAGUCCUGUGCUACACAUCGUAUGUACCGAAUCGGGGUUUGGGGUUUGGGUUUGGGGAAAGUAUUAUGUUACGCCGUUCGGAUCUGCACUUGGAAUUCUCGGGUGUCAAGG,0.184
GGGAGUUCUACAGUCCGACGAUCGUCCUGUGCUACACAUCGUAUGUACCGAAUCGGUUUUUUUGGUUUUUGGUUUUUUUGGAAAGUAUUAUGUUACGCCGUUCGGAUCUGCACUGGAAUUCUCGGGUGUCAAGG,-1.16
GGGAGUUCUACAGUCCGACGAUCUAACUUUAGAGGAGAAUCUGAUGGAUAUGGCAGUGGACGUGGAUUUGGGGAUGGCUAUAAUGGGUAUGGAGGAGGACCUGGAGGUGGCAAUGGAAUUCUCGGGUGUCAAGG,0.542
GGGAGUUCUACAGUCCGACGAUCUGCAGUCGAGCCAGCACCUGUUUCUGGACCUGCCUAAGGUAAGUGAGCUUUUCUCUCAACCUAGUUUUCAGGAGGCCUCUUCUGUCCCCUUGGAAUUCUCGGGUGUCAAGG,0.236
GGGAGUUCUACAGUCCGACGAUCAGUCCUGUGCUACACAUCGUAUGUACCGAAUCGGGUUUUUUUGGGAGGGAAAAAGGGAAAGUAUUAUGUUACGCCGUUCGGAUCUGCACUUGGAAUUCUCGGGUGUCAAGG,0.0294
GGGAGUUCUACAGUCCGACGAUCUCCGCGUGUGAAGUUUUUCUCGGCUGCAUCAUGGGUGCCACAUUCUUUUUGUUGUUUUCAGUGCUGCAAAAGCCCCAUAUCUGGCCAAGUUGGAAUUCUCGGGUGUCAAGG,-0.872
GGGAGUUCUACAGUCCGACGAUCUGGCCCUGGUGGCAUGCGGGGAGGGAGAGGUGGCCUCAUGGAUCGUGGUGGUCCCGGUGGAAUGUUCAGAGGUGGCCGUGGUGGAGACAGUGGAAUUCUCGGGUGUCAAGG,0.856
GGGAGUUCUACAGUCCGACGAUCAGUCCUGUGCUACACAUCGUAUGUACCGAAUCGGAAAAAGGGAAAAAGGAAAAAGGGGAAAGUAUUAUGUUACGCCGUUCGGAUCUGCACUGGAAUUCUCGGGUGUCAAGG,-0.87
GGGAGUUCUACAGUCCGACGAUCUCCUGUGCUACACAUCGUAUGUACCGAAUCGGGGAAAGGGGAAAGGGGUUUUUUUGGGGAAAGUAUUAUGUUACGCCGUUCGGAUCUGCAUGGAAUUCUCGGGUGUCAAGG,0.67
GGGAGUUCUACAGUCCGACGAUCUCAAGUCCUGUGCUACACAUCGUAUGUACCGAAUCGGGAAGGGGAAGGGGAAGGAAAGUAUUAUGUUACGCCGUUCGGAUCUGCACUUCCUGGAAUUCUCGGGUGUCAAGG,-0.0212

# Some of these lines once more (study 2):
Strand,E-score
AGAAAGAG,-0.0858
AAAAAGTT,0.235
ACCGCTAG,-0.243
ATCCTGGG,-0.229
GAGTTGGA,-0.0329
TGGTACAA,0.183
CACACCTC,-0.201
GACCTGGC,-0.33
CACCACCC,-0.295
ATGCCACA,0.0782
